Results from different studies.
± marks the error that the study gave.

COC(=O)C[C@](O)(CCCC(C)(C)OC(C)=O)C(=O)O[C@@H]1C(OC)=C[C@]23CCCN2CCc2cc4c(cc2[C@H]13)OCO4  tissue concentration (CD1 mouse, bone marrow; subcutaneous, 1 mg/kg, 0.5 h): 176 ng/mL
COCCOCCOCCOc1ccc(/C=C/C2=[N+]3C(=C(c4cc(OC)cc(OC)c4)c4c(C)c(I)c(/C=C/c5ccc(OCCOCCOCCOC)cc5)n4[B-]3(F)F)C(C)=C2I)cc1  fluorescence quantum yield (dichloromethane; relative to: methylene blue): 0.24
C[C@H](CCC(=O)N[C@@H](CCCCNC(=O)C(F)(F)F)C(=O)O)[C@H]1CC[C@H]2[C@@H]3[C@H](O)C[C@@H]4C[C@H](O)CC[C@]4(C)[C@H]3C[C@H](O)[C@]12C  concentration (C57BL/6J mice, liver; oral, 50 mg/kg, 5 h): 12.7 µM
Cc1ccc(OCC(=O)N(Cc2cccs2)c2ccn[nH]2)cc1  total corpora lutea count (Crl:CD(SD) rat, bred female; oral, 300 mg/kg/day, total per group, developmental toxicity): 422
CC1=C(/C=C/C(=O)N2CCN(C(N)=O)CC2)C(C)(C)CCC1  tolerability (rat): not toxic
CC(C)[C@@H]1NC(=O)[C@H](Cc2ccccc2)NC(=O)[C@H](Cc2ccc(O)cc2)NC(=O)CCSSC[C@@H](C(=O)N2CCC[C@H]2C(=O)N[C@H](CCCNC(=N)N)C(=O)NCC(N)=O)NC(=O)[C@H](CCC(N)=O)NC1=O  total protein (Wistar rat, blood; intravenous, 1 µg/kg single dose, 72 h): 6.9 ± 0.5 g/dL
CC[C@H](C)[C@@H]1NC(=O)[C@H](C(C)C)NC(=O)[C@H](C(C)C)NC(=O)[C@H](CC(C)C)NC(=O)C[C@@H](C(=O)N[C@@H](Cc2c[nH]c3ccccc23)C(=O)N[C@@H](CC(N)=O)C(=O)N[C@@H](C)C(=O)N2CCC[C@H]2C(=O)NCC(=O)N[C@@H](Cc2c[nH]c3ccccc23)C(=O)N[C@@H](Cc2ccc(O)cc2)C(=O)O)NC(=O)[C@H](C)NC(=O)[C@H](CCC(N)=O)NC(=O)[C@H](C(C)C)NC1=O  thermal stability (HPLC; 3 h, 95 °C): stable
CC[C@H](C)[C@H](NC(=O)[C@H](CCCCN)NC(=O)[C@H](Cc1ccccc1)NC(=O)[C@H]1CCC[C@@H]1NC(=O)[C@@H](N)CCCCN)C(=O)N[C@@H](C)CC(=O)N[C@@H](CCCCN)C(=O)N[C@@H](CCCCN)C(=O)N[C@H]1CCC[C@@H]1C(=O)N[C@H](C(=O)N[C@@H](CCCCN)C(=O)N[C@H](C(=O)N[C@H](CC(N)=O)Cc1ccccc1)[C@@H](C)O)C(C)C  helical rigidity (circular dichroism; trifluoroethanol in water; relative to: 15% TFE over 100% TFE): 24 ± 4%
CN[C@](C)(C[18F])C(=O)O  tissue uptake (SCID mouse U87 xenograft, lung; 30 min, post injection): 2.8 ± 0.9 %ID/g
CC(C)[C@H](NC(=O)CNC(=O)[C@H](CCC(N)=O)NC(=O)[C@H](C)N)C(=O)O  possibly related adverse events (human; single dose, 30 mg/kg): 0%
CCN(Cc1ccccc1)C(=O)CCc1nc(CN2CCN(C(=O)Cc3ccc(OC)c(OC)c3)CC2)no1  tissue concentration ratio (rat; intravenous, 1 mg/kg, 15 min; relative to: dorsal root ganglion over brain): ~31.6
CCC(C)C(=O)OC1C2C3(C)CCC(OC4CC(OC)C(OC5OC(C)C(O)C(OC)C5O)C(C)O4)CC3CCC23OC32CCC(C(C)=O)C2(C)C1OC(C)=O (centres unmarked)  Papp B→A (Caco-2; 10 µM): 1.53 ×10⁻⁶ cm/s
CC[C@H](C)[C@H](NC(=O)[C@H](CCCCN)NC(=O)CNC(=O)[C@H](CC(C)C)NC(=O)[C@@H](NC(=O)[C@H](C)NC(=O)[C@H](CCCCN)NC(=O)CNC(=O)[C@H](C)NC(=O)CNC(=O)[C@H](CCCCN)NC(=O)[C@H](CCSC)NC(=O)[C@H](CCCCN)NC(=O)[C@@H](NC(=O)[C@H](Cc1c[nH]c2ccccc12)NC(=O)[C@H](CC(C)C)NC(=O)[C@H](CCC(N)=O)NC(=O)[C@H](CCCCN)NC(=O)[C@H](CC(C)C)NC(=O)[C@@H](N)CC(C)C)[C@@H](C)O)C(C)C)C(=O)N[C@@H](CCCCN)C(=O)NCC(=O)N[C@@H](CC(C)C)C(=O)N[C@@H](CC(C)C)C(=O)O  Stern-Volmer constant (acrylamide quenching; PBS, no lipid; 2 µM, together with: acrylamide): 15.4 ± 0.17 M⁻¹
CC[C@H](C)[C@H](NC(=O)[C@H](CCCCN)NC(=O)[C@@H](NC(=O)[C@H](CCC(N)=O)NC(=O)[C@H](CCCNC(=N)N)NC(=O)[C@@H](N)CC(=O)O)[C@@H](C)CC)C(=O)N[C@@H](Cc1c[nH]c2ccccc12)C(=O)N[C@@H](Cc1ccccc1)C(=O)N[C@@H](CCC(N)=O)C(=O)N[C@@H](CC(N)=O)C(=O)N[C@@H](CCCNC(=N)N)C(=O)N[C@@H](CCCNC(=N)N)C(=O)N[C@@H](CCSC)C(=O)N[C@@H](CCCCN)C(=O)N[C@@H](Cc1c[nH]c2ccccc12)C(=O)N[C@@H](CCCCN)C(=O)N[C@@H](CCCCN)C(=O)N[C@@H](CC(C)C)C(=O)N[C@@H](CC(=O)O)C(=O)N[C@@H](C)C(=O)N[C@@H](CO)C(=O)N[C@@H](C)C(=O)N[C@@H](CC(C)C)C(=O)O  locomotor activity (open field; 5XFAD transgenic mouse; intranasal, 0.1 mg/kg every 2 days, 30 days): no effect
COc1cc2ccnc(Cc3ccc(O[11CH3])c(OC)c3)c2cc1OC  brain uptake (Sprague-Dawley rat, striatum; i.v., 5 min): 0.2 %ID/g
CC1(C)C(=O)N(c2ccc(C#N)c(C(F)(F)F)c2)C(=S)N1c1ccc(C(N)=O)c(F)c1  AUC(0-inf) (human, male, plasma; oral, 160 mg, single dose, after high-fat meal): 270 ± 40.3 µg·h/mL
CCCCCCCC/C=C\CCCCCCCCOP(O)(O)=S.N  Vz/F (mouse, female, irradiated; subcutaneous, single dose 24 h after irradiation, together with: 15.6 Gy partial-body irradiation): 1.23 L/kg
O=C(O)CCC(NP(=O)(O)OCCC[C@@H](NC(=O)CCC(NC(=O)CCCCCNC(=O)c1ccc([18F])cc1)C(=O)O)C(=O)O)C(=O)O (some centres unmarked)  tumour uptake (radioactivity; mouse, CWR22Rv1 xenograft, tumour; 1 h): 3.16%
COCCN1COc2c(cc3c4c(c(=O)oc3c2C)CCC4)C1  permeability (Pe) (porcine brain lipid; 100 µg/mL, 18 h, pH 7.4): 7.8 ± 0.25 ×10⁻⁶ cm/s
COc1cc(C(=O)NCCOCCOCCOCCNC(=O)c2ccc([18F])nc2)ccc1NC(=O)C1NC(CC(C)(C)C)C(C#N)(c2ccc(Cl)cc2F)C1c1cccc(Cl)c1F (centres unmarked)  tumour-to-tissue ratio (athymic male mice, SJSA-1 xenograft; 1 h; relative to: tumour over muscle): 1.64 ± 0.26
CC[C@@H](C)[C@@H](NC(=O)[C@@H](C)NC(=O)[C@@H](CCCCN)NC(=O)[C@@H](CC(C)C)NC(=O)[C@@H](C)NC(=O)[C@H](NC(=O)[C@@H](Cc1c[nH]cn1)NC(=O)[C@@H](CC(C)C)NC(=O)[C@H](NC(=O)[C@H](NC(=O)[C@@H](CCCCN)NC(=O)[C@@H](CCCCN)NC(=O)[C@@H](C)NC(=O)[C@@H](CO)NC(=O)[C@@H](CCCCN)NC(=O)[C@@H](Cc1ccccc1)NC(=O)[C@H](NC(=O)[C@@H](CCCCN)NC(=O)[C@@H](CC(C)C)NC(=O)[C@@H](Cc1ccccc1)NC(=O)[C@@H](CO)NC(=O)[C@@H](CCCCN)NC(=O)[C@@H](Cc1c[nH]c2ccccc12)NC(=O)[C@@H](CCCCN)NC(C)=O)[C@H](C)O)[C@H](C)O)C(C)C)[C@H](C)O)C(=O)N[C@H](CO)C(=O)N[C@H](CO)C(N)=O  helical content (circular dichroism; aqueous buffer; pH 7.0, 5 °C; relative to: reference peptide in TFE): 3%
CC(C)C[C@H](NC(=O)[C@H](CCCCN)NC(=O)[C@H](CCC(=O)O)NC(=O)[C@H](C)NC(=O)[C@@H](NC(=O)[C@H](CCCCN)NC(=O)[C@H](CC(=O)O)NC(=O)[C@H](Cc1ccc(O)cc1)NC(=O)[C@H](Cc1ccccc1)NC(=O)[C@H](C)NC(=O)[C@H](CCCCN)NC(=O)[C@H](CC(C)C)NC(=O)[C@H](Cc1c[nH]c2ccccc12)NC(=O)[C@@H](N)CC(=O)O)C(C)C)C(=O)N[C@@H](CCCCN)C(=O)N[C@@H](CCC(=O)O)C(=O)N[C@@H](C)C(=O)N[C@@H](Cc1ccccc1)C(=O)N1CCC[C@H]1C(=O)N[C@@H](CC(=O)O)C(=O)N[C@@H](Cc1c[nH]c2ccccc12)C(=O)N[C@@H](C)C(=O)N[C@@H](CCCCN)C(=O)N[C@@H](C)C(=O)N[C@@H](C)C(=O)N[C@@H](Cc1ccc(O)cc1)C(=O)N[C@@H](CC(=O)O)C(=O)N[C@@H](CCCCN)C(=O)N[C@@H](C)C(=O)N[C@@H](C)C(=O)N[C@@H](CCC(=O)O)C(=O)N[C@@H](CCCCN)C(=O)N[C@@H](C)C(=O)N[C@@H](CCCCN)C(=O)N[C@@H](CCC(=O)O)C(=O)N[C@@H](C)C(=O)N[C@@H](C)C(=O)O  AUC(0-last) (cynomolgus monkey male, plasma; intravenous infusion, 8 mg/kg, day 1, 30 min infusion): 324 µg·h/mL
CC(=CCC(O)C(C)=Cc1csc(C)n1)CC=CC(C)C(O)C(C)C(=O)C(C)(C)C(O)CC(=O)O (centres unmarked)  half-life (human, plasma; intravenous infusion, 6.5 mg/m2 KOS-1584, 3 h infusion, cycle 1): 27.5 ± 11 h

Some of these lines once more:
CC1=C(/C=C/C(=O)N2CCN(C(N)=O)CC2)C(C)(C)CCC1  tolerability (rat): not toxic
CC[C@H](C)[C@H](NC(=O)[C@H](CCCCN)NC(=O)CNC(=O)[C@H](CC(C)C)NC(=O)[C@@H](NC(=O)[C@H](C)NC(=O)[C@H](CCCCN)NC(=O)CNC(=O)[C@H](C)NC(=O)CNC(=O)[C@H](CCCCN)NC(=O)[C@H](CCSC)NC(=O)[C@H](CCCCN)NC(=O)[C@@H](NC(=O)[C@H](Cc1c[nH]c2ccccc12)NC(=O)[C@H](CC(C)C)NC(=O)[C@H](CCC(N)=O)NC(=O)[C@H](CCCCN)NC(=O)[C@H](CC(C)C)NC(=O)[C@@H](N)CC(C)C)[C@@H](C)O)C(C)C)C(=O)N[C@@H](CCCCN)C(=O)NCC(=O)N[C@@H](CC(C)C)C(=O)N[C@@H](CC(C)C)C(=O)O  Stern-Volmer constant (acrylamide quenching; PBS, no lipid; 2 µM, together with: acrylamide): 15.4 ± 0.17 M⁻¹
